Published values from different studies.
Every numbered part comes from another study and shows a few of its results, in no order. Positions count from the first letter of the parent shown.

Block 1 — target: CCNB2, cyclin fold, Cln2 fusion (human); technique: yeast growth competition, sequencing; sample: yeast; notes: weak parent motif; relative to: not given; direction: higher = stronger binding; measurement: normalised enrichment score
Starting sequence: LLGL2 docking peptide (human); KSLKKSLRQSFRR
KSLKKSLRQSFRA [R13A]: 0.792
KALKKSLRQSFRR [S2A]: 0.914
KSLKKALRQSFRR [S6A]: -0.279
KSLKASLRQSFRR [K5A]: 0.696
KSLKKSLRQAFRR [S10A]: 0.367
ASLKKSLRQSFRR [K1A]: 0.331

Block 2 — technique: RNA Bind-n-Seq; form: RNA; sample: in vitro; concentration: 365 nM; relative to: no-protein control; direction: higher = stronger binding; measurement: RBNS enrichment (R)
Target: RNA binding protein fox-1 homolog 2, RRM domain, GST-SBP tag (RBFOX2, Homo sapiens, UniProt O43251-10, residues 100-194)
Notes: natural RNA segment, single round, ends assumed
Target sequence (chain): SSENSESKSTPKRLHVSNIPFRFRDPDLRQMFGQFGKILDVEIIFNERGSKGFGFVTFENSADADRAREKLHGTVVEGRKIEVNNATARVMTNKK
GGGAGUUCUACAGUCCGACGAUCCAAAUUAUCUGGGCUUCAGAAGCCAUCCCUUUGCUAUGCUUGACACCAAACUCAGUCACUCCACCUCAGUCAUGACCUGAUAUAAAAGCCGUGCUAGUUUCCCGAGUUCAUGGAAUUCUCGGGUGCCAA: 0.527
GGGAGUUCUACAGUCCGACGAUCAUGUGUUUUUGUUUGUUUGUUUGUUUCAGGAGCAAUCGGUUACAUGGGAACAAGUGCCUUUGUUCGAAAAAUCUAUACUAAUGUGAAAAUUGACUAGAUAUCUGAGACAAUGGAAUUCUCGGGUGCCAA: 0.333
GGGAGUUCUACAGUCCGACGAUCACUGUGUUGACACUCAUGACCCUUUUUUUAAACCGUUAAAGGGAAGUUCGGUGUUGGAGCGAUACUCAAUGUAGUCAGUCUACACCUGGACGUGUGGGCCACUUAAGCCCUGGAAUUCUCGGGUGCCAA: 0.293
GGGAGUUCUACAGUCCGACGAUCUUGUGUGGAGUGGUGUGUCAGCCCUUGAACAUCUCCUCCAAAGAGACUAGAAGAGUCUUAAAUUAUAUGUGGGAGGAGGAGGGAUAGAACAUCACAACACUGCUCUAGUUUGGAAUUCUCGGGUGCCAA: 1.66
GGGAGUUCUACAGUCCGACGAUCUUCAUGGCCCUUUAUCCUAAUAUUCAAGGACAAGUUCAUAAAGAGAUUGAUUUAAUUGUGGGCCACAACAGGAGACCUUCUUGGGAAUACAAAUGCAAAAUGCCUUAUACUGGAAUUCUCGGGUGCCAA: 0.356
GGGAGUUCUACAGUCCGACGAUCUUUUAAAGUUGGGCUUUUUAAUUACUUUACAAAUACCCAUGAGUGGGACAGAUGUUCUGAACCUGGACCACAGGCCUUCCUGCUAGGCUUGCAGCCCACGGUGCACAUCUUGGAAUUCUCGGGUGCCAA: 0.203
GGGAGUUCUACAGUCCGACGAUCCCGGACCAGACGGACACAGGGAGAAGCUAGUUUCUUUCAUGUGAUUGAAAUGAUGACUCUACUCCUAAAAGGGAAAAAACAAUAUCCUUGUUUACAGAAGAGAAACAAACUGGAAUUCUCGGGUGCCAA: 0.395
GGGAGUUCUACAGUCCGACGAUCACAUUUAUGUGGGCCACAUACCCAAACUUCCUGCCAUGUAAAGGCGAGUGAUUGUGAAAGCACCUCUGUUGUAGUGGGUAGGUGCCUUUCUCAUGAGCGGGGAGCAUAACUGGAAUUCUCGGGUGCCAA: 0.753

Block 3 — technique: protein binding microarray; form: double-stranded DNA, one strand shown; sample: in vitro; concentration: not given; relative to: not given; direction: higher = stronger binding; measurement: E-score
Target: Histone acetyltransferase KAT6A, winged helix 1, GST fusion (KAT6A, Homo sapiens, UniProt Q92794, residues 1-85)
Notes: 8-mer, flanks averaged, mean of 2 arrays, mostly near background
Construct (chain): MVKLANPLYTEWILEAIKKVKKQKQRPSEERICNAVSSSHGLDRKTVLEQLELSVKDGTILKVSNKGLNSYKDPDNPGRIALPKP
AGATACCC: 0.0128
CCGAGCAG: 0.0487
AAGCCCAC: -0.165
CCGAGATA: -0.0033
GTCGGTTA: 0.151
TCACCTGA: -0.196
GTGTCCGA: 0.15
AAACCGCT: 0.239
TGTGCCAA: -0.233
CGCTGAAA: 0.11
GGATGACC: 0.0686
ATGCACCA: -0.186
CTTGCCGA: -0.0059
CAATTGCC: -0.0334
ACCCGGCC: 0.336
CGTTCTAA: -0.00577
TACATTCA: -0.173
GAGATGGA: -0.261
ACCCATAT: -0.101
AGGCGATA: -0.0454
TGTAACAA: -0.116
ATTGGTCC: 0.0422
TATAGAGA: -0.274
AGCCACGA: -0.134
CACAGGTG: -0.12

Block 4 — technique: RNAcompete; form: RNA; sample: in vitro; concentration: 20 nM; notes: 7-mer, probes averaged, single round; relative to: mean of 7-mers; direction: higher = stronger binding; measurement: 7-mer Z-score
Target: PABPC1L2, full length, GST fusion (mouse, UniProt A0ABA7IW68)
Residues (chain): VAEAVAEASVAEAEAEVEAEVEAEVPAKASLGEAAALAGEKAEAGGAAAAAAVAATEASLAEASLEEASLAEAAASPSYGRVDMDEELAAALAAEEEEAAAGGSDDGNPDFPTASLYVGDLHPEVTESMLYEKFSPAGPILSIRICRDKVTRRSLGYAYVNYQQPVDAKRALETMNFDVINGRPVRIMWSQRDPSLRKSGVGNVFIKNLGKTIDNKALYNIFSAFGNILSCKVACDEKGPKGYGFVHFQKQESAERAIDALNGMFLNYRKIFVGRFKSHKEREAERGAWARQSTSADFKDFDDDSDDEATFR
AUACCAU: -0.079
UUUAUGU: -0.132
GGAUUGG: -0.0554
CACAUGA: -0.162
UAACGGC: -0.0808
UCAUCGC: -0.315
GGACUUA: 0.128
AGGUGUC: -0.101
CAUCUCU: -0.287
CGCAUGG: -0.151
UACCCAG: -0.296
UGAAUUC: -0.309
CGUAGCG: -0.322
CACGGGU: 0.138
CAGCCGG: -0.271
UUCAGUC: -0.344
GUACGGC: -0.0192
AUCCGCC: -0.519
CGGAGUU: -0.287

A few entries again (block 1):
KSLKKSLRQAFRR [S10A]: 0.367
KSLKASLRQSFRR [K5A]: 0.696
ASLKKSLRQSFRR [K1A]: 0.331
KSLKKSLRQSFRA [R13A]: 0.792
KSLKKALRQSFRR [S6A]: -0.279
KALKKSLRQSFRR [S2A]: 0.914
